# Results from different studies.
# Compare with care: the assays were run in different laboratories.
# Target: Cholinesterase (BCHE, Homo sapiens, UniProt P06276)
# Chain of UniProt P06276 (whole entry, looked up): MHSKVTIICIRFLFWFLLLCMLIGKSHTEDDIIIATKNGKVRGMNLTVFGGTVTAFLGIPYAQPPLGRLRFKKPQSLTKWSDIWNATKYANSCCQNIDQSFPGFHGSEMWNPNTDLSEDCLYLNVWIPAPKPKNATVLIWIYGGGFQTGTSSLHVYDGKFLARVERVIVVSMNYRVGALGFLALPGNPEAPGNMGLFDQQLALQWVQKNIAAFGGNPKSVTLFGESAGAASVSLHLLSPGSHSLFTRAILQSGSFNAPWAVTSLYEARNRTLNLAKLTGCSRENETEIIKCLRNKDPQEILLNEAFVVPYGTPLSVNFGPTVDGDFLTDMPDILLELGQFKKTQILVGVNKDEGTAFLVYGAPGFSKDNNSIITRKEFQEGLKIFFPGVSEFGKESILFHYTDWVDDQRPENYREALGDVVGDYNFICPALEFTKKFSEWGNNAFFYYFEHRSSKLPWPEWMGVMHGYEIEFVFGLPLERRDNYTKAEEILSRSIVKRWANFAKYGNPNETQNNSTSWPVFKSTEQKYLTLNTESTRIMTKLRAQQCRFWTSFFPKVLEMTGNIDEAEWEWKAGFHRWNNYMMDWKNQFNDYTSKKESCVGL
# Read-out: enzyme activity
# Action: inhibitor
SMILES,method,concentration,inhibition
S=C(NCc1ccccn1)NCc1ccccn1,Ellman,125 µg/mL,65.7%
O=C(O)CCCC(=O)O,Ellman,125 µg/mL,50.1%
O=C(O)/C=C/c1ccc(O)cc1,Ellman,1000 µg/mL,83.2%
O=c1c(O)c(-c2cc(O)ccc2O)oc2cc(O)cc(O)c12,Ellman,500 µg/mL,71.1%
COc1ccc2[nH]cc(CCNS(=O)(=O)CCc3cn(-c4cnc5ccccc5c4)nn3)c2c1,,20 µM,35.4%
O=C(O)/C=C/c1cc(O)cc(O)c1,Ellman,62.5 µg/mL,48%
CCS(=O)(=O)N1CCN(CC(=O)Nc2ccc(/C=C/C(=O)c3ccc(OC)c(OC)c3)cc2)CC1,Ellman,100 µM,24.8%
COc1ccc2[nH]cc(CCNS(=O)(=O)CCc3cn(-c4cc(C)cc(C)c4)nn3)c2c1,,20 µM,25.9%
O=c1c(O)c(-c2ccc(O)c(O)c2)oc2c(O[C@@H]3O[C@H](CO)[C@@H](O)[C@H](O)[C@H]3O)c(O)cc(O)c12,Ellman DTNB,80000 µM,< 0%

# For quick reference, copied from above:
SMILES,method,concentration,inhibition
O=C(O)/C=C/c1cc(O)cc(O)c1,Ellman,62.5 µg/mL,48%
S=C(NCc1ccccn1)NCc1ccccn1,Ellman,125 µg/mL,65.7%
